{"data": "Assay results from different studies", "note": "Every numbered part comes from another study and shows a few of its results, in no order.", "sequence of UniProt P10721 (whole entry, unmodified, looked up)": "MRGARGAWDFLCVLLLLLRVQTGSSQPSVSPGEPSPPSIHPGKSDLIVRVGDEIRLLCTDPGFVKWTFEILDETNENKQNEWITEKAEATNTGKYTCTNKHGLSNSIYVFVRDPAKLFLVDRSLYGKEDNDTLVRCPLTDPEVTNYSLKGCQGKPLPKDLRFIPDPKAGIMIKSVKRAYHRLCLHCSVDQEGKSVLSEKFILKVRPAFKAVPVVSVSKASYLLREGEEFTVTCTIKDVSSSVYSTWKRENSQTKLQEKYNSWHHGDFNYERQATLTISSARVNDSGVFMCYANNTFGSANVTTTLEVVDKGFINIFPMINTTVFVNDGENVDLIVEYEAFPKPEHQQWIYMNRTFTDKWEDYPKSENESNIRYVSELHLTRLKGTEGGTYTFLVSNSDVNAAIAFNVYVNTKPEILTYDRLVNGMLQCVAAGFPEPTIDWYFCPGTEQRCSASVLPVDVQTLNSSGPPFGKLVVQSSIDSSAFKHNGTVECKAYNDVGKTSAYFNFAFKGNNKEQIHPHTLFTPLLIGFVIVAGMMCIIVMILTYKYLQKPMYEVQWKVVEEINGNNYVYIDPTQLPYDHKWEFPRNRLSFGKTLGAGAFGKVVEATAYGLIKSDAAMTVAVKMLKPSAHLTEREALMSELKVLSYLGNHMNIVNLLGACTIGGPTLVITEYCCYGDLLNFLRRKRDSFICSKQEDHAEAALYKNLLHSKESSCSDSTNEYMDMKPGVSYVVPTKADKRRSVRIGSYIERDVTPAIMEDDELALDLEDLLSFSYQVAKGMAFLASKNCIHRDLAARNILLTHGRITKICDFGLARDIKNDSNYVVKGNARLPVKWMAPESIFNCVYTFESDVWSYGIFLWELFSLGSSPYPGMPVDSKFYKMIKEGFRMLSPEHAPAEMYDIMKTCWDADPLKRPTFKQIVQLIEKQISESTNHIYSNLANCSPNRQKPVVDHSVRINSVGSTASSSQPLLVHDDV", "sequence of UniProt Q13976 (whole entry, looked up)": "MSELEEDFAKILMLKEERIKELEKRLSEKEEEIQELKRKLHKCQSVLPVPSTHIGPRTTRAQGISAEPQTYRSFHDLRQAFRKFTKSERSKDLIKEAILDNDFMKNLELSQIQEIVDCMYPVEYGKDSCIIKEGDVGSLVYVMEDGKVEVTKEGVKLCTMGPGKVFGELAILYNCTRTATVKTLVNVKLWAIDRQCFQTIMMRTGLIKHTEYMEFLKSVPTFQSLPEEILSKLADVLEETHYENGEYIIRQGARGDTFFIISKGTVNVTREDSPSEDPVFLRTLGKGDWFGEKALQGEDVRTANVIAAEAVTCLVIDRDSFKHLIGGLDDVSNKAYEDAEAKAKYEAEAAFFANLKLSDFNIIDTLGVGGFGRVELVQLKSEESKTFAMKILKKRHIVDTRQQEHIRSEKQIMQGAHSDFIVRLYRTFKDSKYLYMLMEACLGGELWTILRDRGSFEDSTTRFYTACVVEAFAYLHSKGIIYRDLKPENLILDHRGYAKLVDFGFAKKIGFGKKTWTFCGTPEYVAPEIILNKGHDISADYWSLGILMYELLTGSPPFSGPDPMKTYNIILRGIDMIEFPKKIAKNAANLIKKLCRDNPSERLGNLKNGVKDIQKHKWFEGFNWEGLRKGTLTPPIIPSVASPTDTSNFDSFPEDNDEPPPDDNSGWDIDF", "sequence of UniProt Q9UIK4 (whole entry, looked up)": "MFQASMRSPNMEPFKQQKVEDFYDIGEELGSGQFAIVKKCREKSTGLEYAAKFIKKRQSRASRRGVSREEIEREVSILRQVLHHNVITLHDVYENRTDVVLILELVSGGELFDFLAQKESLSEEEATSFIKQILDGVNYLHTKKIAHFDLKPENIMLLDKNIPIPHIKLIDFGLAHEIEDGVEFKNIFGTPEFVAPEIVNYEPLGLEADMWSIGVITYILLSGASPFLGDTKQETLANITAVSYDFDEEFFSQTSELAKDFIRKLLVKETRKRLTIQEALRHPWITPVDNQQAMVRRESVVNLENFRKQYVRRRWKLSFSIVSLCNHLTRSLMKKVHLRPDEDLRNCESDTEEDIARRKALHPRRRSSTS", "sequence of UniProt Q16620 (whole entry, looked up)": "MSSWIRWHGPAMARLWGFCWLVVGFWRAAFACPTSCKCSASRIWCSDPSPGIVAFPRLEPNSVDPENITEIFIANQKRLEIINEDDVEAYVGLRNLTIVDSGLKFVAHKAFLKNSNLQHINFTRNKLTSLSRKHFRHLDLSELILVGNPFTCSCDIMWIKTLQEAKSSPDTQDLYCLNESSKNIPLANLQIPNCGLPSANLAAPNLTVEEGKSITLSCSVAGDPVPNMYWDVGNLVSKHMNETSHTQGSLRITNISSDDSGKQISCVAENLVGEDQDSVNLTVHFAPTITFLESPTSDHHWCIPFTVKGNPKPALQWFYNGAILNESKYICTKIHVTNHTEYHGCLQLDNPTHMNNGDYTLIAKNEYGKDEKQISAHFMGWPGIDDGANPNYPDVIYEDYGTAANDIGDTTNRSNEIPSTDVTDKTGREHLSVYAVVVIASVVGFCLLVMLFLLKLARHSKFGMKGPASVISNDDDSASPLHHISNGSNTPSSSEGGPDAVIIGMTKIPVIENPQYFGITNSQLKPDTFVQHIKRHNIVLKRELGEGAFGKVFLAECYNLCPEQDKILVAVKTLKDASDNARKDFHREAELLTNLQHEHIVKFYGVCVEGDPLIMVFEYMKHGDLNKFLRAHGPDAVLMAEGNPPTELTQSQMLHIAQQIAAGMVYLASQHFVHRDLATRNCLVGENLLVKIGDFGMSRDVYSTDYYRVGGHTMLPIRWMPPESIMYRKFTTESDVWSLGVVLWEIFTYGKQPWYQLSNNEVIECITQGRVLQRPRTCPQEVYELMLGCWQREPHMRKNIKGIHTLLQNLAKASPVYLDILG", "sequence of UniProt Q00535 (whole entry, looked up)": "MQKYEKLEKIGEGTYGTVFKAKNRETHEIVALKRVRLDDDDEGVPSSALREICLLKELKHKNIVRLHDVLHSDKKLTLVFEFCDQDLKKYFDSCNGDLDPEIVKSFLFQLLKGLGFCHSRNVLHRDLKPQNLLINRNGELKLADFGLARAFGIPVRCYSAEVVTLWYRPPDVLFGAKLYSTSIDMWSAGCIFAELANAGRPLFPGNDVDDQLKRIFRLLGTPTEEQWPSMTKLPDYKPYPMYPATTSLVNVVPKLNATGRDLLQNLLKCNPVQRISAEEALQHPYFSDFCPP", "sequence of UniProt Q13464 (whole entry, looked up)": "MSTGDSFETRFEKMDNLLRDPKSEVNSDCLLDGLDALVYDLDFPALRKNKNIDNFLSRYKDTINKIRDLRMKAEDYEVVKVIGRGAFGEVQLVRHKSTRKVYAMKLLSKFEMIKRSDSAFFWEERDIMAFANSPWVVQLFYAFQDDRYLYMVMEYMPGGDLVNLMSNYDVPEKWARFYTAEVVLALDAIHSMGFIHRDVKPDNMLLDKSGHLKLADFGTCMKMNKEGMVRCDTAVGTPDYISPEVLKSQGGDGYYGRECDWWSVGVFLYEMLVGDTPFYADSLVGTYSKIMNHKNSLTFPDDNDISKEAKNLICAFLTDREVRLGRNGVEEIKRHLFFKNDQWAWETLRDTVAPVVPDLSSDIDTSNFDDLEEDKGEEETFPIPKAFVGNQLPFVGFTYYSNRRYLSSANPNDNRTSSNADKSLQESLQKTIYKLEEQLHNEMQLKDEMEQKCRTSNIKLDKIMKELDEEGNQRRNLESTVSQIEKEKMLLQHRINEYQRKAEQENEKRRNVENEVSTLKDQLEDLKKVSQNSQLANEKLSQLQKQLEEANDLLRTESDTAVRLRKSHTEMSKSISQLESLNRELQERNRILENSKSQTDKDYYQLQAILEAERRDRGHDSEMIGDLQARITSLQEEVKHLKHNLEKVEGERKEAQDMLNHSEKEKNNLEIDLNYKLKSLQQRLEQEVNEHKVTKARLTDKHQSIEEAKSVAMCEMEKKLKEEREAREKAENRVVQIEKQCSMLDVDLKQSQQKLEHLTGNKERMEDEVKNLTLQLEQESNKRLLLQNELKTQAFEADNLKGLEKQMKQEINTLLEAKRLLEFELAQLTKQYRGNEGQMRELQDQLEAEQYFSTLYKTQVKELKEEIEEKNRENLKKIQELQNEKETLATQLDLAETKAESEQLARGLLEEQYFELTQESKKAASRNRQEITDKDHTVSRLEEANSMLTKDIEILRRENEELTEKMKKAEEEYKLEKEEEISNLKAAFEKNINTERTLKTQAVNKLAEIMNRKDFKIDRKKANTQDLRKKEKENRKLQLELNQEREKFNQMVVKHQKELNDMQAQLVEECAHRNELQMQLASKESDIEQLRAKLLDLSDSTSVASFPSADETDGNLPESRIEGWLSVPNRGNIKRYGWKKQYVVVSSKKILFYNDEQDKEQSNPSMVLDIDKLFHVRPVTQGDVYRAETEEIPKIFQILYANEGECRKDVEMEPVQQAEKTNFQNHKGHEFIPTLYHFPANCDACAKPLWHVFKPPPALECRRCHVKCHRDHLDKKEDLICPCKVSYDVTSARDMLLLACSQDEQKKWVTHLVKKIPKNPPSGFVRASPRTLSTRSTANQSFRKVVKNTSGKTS", "sequence of UniProt O96017 (whole entry, looked up)": "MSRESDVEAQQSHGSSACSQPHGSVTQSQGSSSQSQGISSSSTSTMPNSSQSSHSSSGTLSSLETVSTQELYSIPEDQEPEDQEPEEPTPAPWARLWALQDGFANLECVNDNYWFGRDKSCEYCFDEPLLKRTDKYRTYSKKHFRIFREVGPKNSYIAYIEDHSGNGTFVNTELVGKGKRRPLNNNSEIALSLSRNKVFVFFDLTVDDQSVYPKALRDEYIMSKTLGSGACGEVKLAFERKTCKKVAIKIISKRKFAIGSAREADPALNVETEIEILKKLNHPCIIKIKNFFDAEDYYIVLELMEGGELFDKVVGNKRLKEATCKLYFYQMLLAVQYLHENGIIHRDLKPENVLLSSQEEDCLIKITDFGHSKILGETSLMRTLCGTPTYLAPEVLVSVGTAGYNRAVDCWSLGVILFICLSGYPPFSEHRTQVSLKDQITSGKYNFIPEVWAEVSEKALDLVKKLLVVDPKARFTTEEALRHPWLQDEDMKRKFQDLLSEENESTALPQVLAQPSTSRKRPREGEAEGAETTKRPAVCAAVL"}
{"data": "Series 1", "Structure (SMILES)": "C[C@@H]1CCN(C(=O)CC#N)C[C@@H]1N(C)c1ncnc2[nH]ccc12", "effect on": "enzyme activity", "mode": "inhibitor", "tested at": "0.5 µM", "relative to": "control"}
{"target": "STK39 (Homo sapiens, UniProt Q9UEW8)", "remaining activity [%]": 95.1}
{"target": "CAMKK2 (Homo sapiens, UniProt Q96RR4)", "remaining activity [%]": 97.7}
{"target": "NEK2 (Homo sapiens, UniProt P51955)", "remaining activity [%]": 103}
{"target": "IKBKB (Homo sapiens, UniProt O14920)", "remaining activity [%]": 88.2}
{"target": "DAPK2 (Homo sapiens, UniProt Q9UIK4)", "remaining activity [%]": 89.5}
{"target": "cGMP-dependent protein kinase 1, isoform beta (PRKG1, Homo sapiens, UniProt Q13976)", "remaining activity [%]": 87.8}
{"target": "TGFBR2 (Homo sapiens, UniProt P37173)", "remaining activity [%]": 98.8}
{"target": "TGFBR1 (Homo sapiens, UniProt P36897)", "remaining activity [%]": 98.8}
{"target": "MAP3K3 (Homo sapiens, UniProt Q99759)", "remaining activity [%]": 115}
{"target": "Cyclin-dependent kinase 5, with p25 (CDK5, Homo sapiens, UniProt Q00535)", "remaining activity [%]": 100}
{"target": "MAPK9 (Homo sapiens, UniProt P45984)", "remaining activity [%]": 112}
{"target": "IKBKE (Homo sapiens, UniProt Q14164)", "remaining activity [%]": 94.8}
{"target": "GRK3 (Homo sapiens, UniProt P35626)", "remaining activity [%]": 99.2}
{"target": "STK10 (Homo sapiens, UniProt O94804)", "remaining activity [%]": 92.9}
{"target": "Protein kinase C beta type, isoform beta-I (PRKCB, Homo sapiens, UniProt P05771)", "remaining activity [%]": 101}
{"target": "DAPK1 (Homo sapiens, UniProt P53355)", "remaining activity [%]": 109}
{"target": "Tyrosine-protein kinase Lyn, isoform B (LYN, Homo sapiens, UniProt P07948)", "remaining activity [%]": 98.6}
{"target": "CHEK2 (Homo sapiens, UniProt O96017)", "remaining activity [%]": 104}
{"target": "PRKCA (Homo sapiens, UniProt P17252)", "remaining activity [%]": 78.7}
{"data": "Series 2", "SMILES": "COc1ccc2c(O[C@@H]3C[C@H]4C(=O)N[C@]5(C(=O)O)CC5/C=C\\CCCCC[C@H](NC(=O)OC5CCCC5)C(=O)N4C3)cc(-c3csc(NC(=O)C(C)C)n3)nc2c1C (some centres unmarked)", "effect on": "cell-free assay", "technique": "competition with immobilised ligand", "tested at": "1 µM"}
{"target": "EGFR (Homo sapiens, UniProt P00533, L861Q)", "remaining binding [%]": 100}
{"target": "SGK3 (Homo sapiens, UniProt Q96BR1)", "remaining binding [%]": 75}
{"target": "RIPK1 (Homo sapiens, UniProt Q13546)", "remaining binding [%]": 100}
{"target": "KIT (Homo sapiens, UniProt P10721, A829P)", "remaining binding [%]": 100}
{"target": "Tyrosine-protein kinase ABL1, non-phosphorylated (ABL1, Homo sapiens, UniProt P00519)", "remaining binding [%]": 74}
{"target": "PKN1 (Homo sapiens, UniProt Q16512)", "remaining binding [%]": 100}
{"target": "PRKG1 (Homo sapiens, UniProt Q13976)", "remaining binding [%]": 100}
{"target": "KIT (Homo sapiens, UniProt P10721, L576P)", "remaining binding [%]": 90}
{"target": "CLK1 (Homo sapiens, UniProt P49759)", "remaining binding [%]": 98}
{"target": "NTRK2 (Homo sapiens, UniProt Q16620)", "remaining binding [%]": 94}
{"target": "MAP2K2 (Homo sapiens, UniProt P36507)", "remaining binding [%]": 77}
{"target": "ROCK1 (Homo sapiens, UniProt Q13464)", "remaining binding [%]": 98}
{"target": "HIPK1 (Homo sapiens, UniProt Q86Z02)", "remaining binding [%]": 77}
{"target": "NEK10 (Homo sapiens, UniProt Q6ZWH5)", "remaining binding [%]": 79}
{"target": "EPHA5 (Homo sapiens, UniProt P54756)", "remaining binding [%]": 97}
{"data": "Series 3", "cell line": "HaCaT", "tested at": "100 µM", "time": "36 h"}
{"SMILES": "N=C(N)c1ccc2cc(OC(=O)c3ccc(N=C(N)N)cc3)ccc2c1", "viability": "97.3%"}
{"SMILES": "CCOC(=O)c1ccc(C#Cc2ccc3c(c2)C(C)(C)CCS3)nc1", "viability": "74.6%"}
{"SMILES": "CC(C(=O)O)c1ccc2c(c1)[nH]c1ccc(Cl)cc12 (centres unmarked)", "viability": "71.5%"}
{"SMILES": "Nc1ccc(S(=O)(=O)Nc2cnc3ccccc3n2)cc1", "viability": "59.3%"}
{"SMILES": "COc1cc2nc(N3CCN(C(=O)C4CCCO4)CC3)nc(N)c2cc1OC (centres unmarked)", "viability": "51.9%"}
{"SMILES": "N[C@@H](Cc1c[nH]c2ccc(O)cc12)C(=O)O", "viability": "92%"}
{"SMILES": "OCCOCCN1CCN(C(c2ccccc2)c2ccc(Cl)cc2)CC1 (centres unmarked)", "viability": "19.7%"}
{"SMILES": "C[C@@H](O[C@H]1OCCN(Cc2nc(O)n(P(=O)(O)O)n2)[C@H]1c1ccc(F)cc1)c1cc(C(F)(F)F)cc(C(F)(F)F)c1", "viability": "6.58%"}
{"SMILES": "CCOc1ccccc1OCCN[C@H](C)Cc1ccc(OC)c(S(N)(=O)=O)c1", "viability": "76.9%"}
{"SMILES": "O=C(CCCCCCNC(=O)c1cnc(N(c2ccccc2)c2ccccc2)nc1)NO", "viability": "7.55%"}
{"SMILES": "CC(Cc1cccc(C(F)(F)F)c1)NCCOC(=O)c1ccccc1 (centres unmarked)", "viability": "17.5%"}
{"SMILES": "CN(C)CCC(c1ccc(Br)cc1)c1ccccn1 (centres unmarked)", "viability": "53.1%"}
{"data": "Series 4", "host": "mouse", "medium": "microsomes or S9", "tested at": "2 µM", "time": "0.5 h"}
{"SMILES": "O=[N+]([O-])c1cccc(F)c1COc1cccc(C(F)(F)F)c1", "remaining compound [%]": "> 99"}
{"SMILES": "O=C(Nc1ccc2nc(N3CCN(c4ccccc4)CC3)cc(C(=O)O)c2c1)c1ccccc1F", "remaining compound [%]": 69.5}
{"SMILES": "Cc1cc(C)cc(N(C)S(=O)(=O)c2cn(C)c(=O)[nH]c2=O)c1", "remaining compound [%]": 79.8}
{"SMILES": "Cc1ccc(N(CCO)C2=NS(=O)(=O)c3ccccc32)cc1", "remaining compound [%]": 17}
{"SMILES": "CC(C)Oc1ccccc1NS(=O)(=O)c1cccc(S(=O)(=O)C2CCS(=O)(=O)C2)c1 (centres unmarked)", "remaining compound [%]": 4.64}
{"SMILES": "O=C(Nc1cc(Br)cc2c1N(c1ncccn1)CC2)c1ccccc1", "remaining compound [%]": 0.625}
{"SMILES": "O=C(c1ccc(Nc2nc3ccccc3n3nnnc23)cc1)N1CCc2ccccc2C1", "remaining compound [%]": 6.44}
{"note": "Some of these lines once more (series 3):"}
{"SMILES": "OCCOCCN1CCN(C(c2ccccc2)c2ccc(Cl)cc2)CC1 (centres unmarked)", "viability": "19.7%"}
{"SMILES": "CC(C(=O)O)c1ccc2c(c1)[nH]c1ccc(Cl)cc12 (centres unmarked)", "viability": "71.5%"}
{"SMILES": "N[C@@H](Cc1c[nH]c2ccc(O)cc12)C(=O)O", "viability": "92%"}
{"SMILES": "CCOC(=O)c1ccc(C#Cc2ccc3c(c2)C(C)(C)CCS3)nc1", "viability": "74.6%"}
